Published values of several laboratories.
Each line is one published result; not all experiments were run side by side. Numbers after ± are the reported error.
SRC SH3-SH2-kinase domain: Proto-oncogene tyrosine-protein kinase Src, SH3-SH2-kinase domain (SRC, Gallus gallus, UniProt P00523)
Genome polyprotein NS3 helicase domain: Genome polyprotein, NS3 helicase domain (Hepatitis C virus genotype 1b, UniProt Q9WMX2)
Trypanothione synthetase: Trypanothione synthetase (Trypanosoma brucei, UniProt Q586P2)

Compound	tested on	test	test system	setting	how to read	measurement	result
Cc1cc(-c2ccc(NC(=O)[C@H](CCCCNC(=O)CCOCCOCCC(=O)N[C@H](Cc3ccccc3)C(=O)N[C@H]3CSSC[C@@H](C(=O)N[C@H](C(=O)O)[C@@H](C)O)NC(=O)[C@H]([C@@H](C)O)NC(=O)[C@H](CCCCN)NC(=O)[C@@H](Cc4c[nH]c5ccccc45)NC(=O)[C@H](Cc4ccc(O)cc4)NC3=O)NC(=O)CN3CCN(CC(=O)O)CCN(CC(=O)O)CCN(CC(=O)O)CC3)c(C)c2)ccc1N=Nc1ccc2c(S(=O)(=O)O)cc(S(=O)(=O)O)c(N)c2c1O [lutetium-177 labelled]	–	–	patients with metastatic NETs, whole body	–	–	residence time	149 ± 15.1 h
C/C=C/C(=O)Nc1ccc2nc(NCCCCCN(C)C)nc(NCCCCCCN(C)C)c2c1	PHD finger protein 1, Tudor-PHD1-PHD2 domains (Homo sapiens, UniProt O43189)	methyl-lysine binding, TR-FRET	–	–	–	IC50	> 100 µM
Cn1c(=O)oc2ccc(-c3ccc(CC(C#N)NC(=O)C4CNCCCO4)c(F)c3)cc21 (stereo not shown)	–	–	human, plasma	40 mg once daily, day 28, median	–	Tmax	1.5 h
C[C@H](NC(=O)c1sccc1OCc1ccc(Cl)cc1)c1ccccc1	Phosphatidylinositol 3,4,5-trisphosphate 5-phosphatase 1, Ptase-C2 domains (INPP5D, Homo sapiens, UniProt Q92835)	enzyme activity, inhibitor	–	–	–	IC50	49.6 µM
COc1cccc(Cc2cc(CCC(=O)NC3=C(C)C4=C(C)c5c(C)cc(C)n5[B-](F)(F)[N+]4=C3C)nn(CC(=O)Nc3ccc(Br)cc3)c2=O)c1	FPR2 (Homo sapiens, UniProt P25090)	calcium mobilization, antagonist	HL-60 transfected with target	together with: WKYMVM 5 nM	–	IC50	1.6 ± 1.4 µM
CC(C)(O)Cn1nc(-c2ccc3nc(OC(F)F)ccc3c2)c2c(N)ncnc21	Calmodulin-domain protein kinase 1, putative (Cryptosporidium parvum, UniProt A3FQ16)	enzyme activity, inhibitor	–	–	–	IC50	0.004 µM
O=c1cc(-c2ccc(O)c(O)c2)oc2cc(O[C@@H]3O[C@H](CO)[C@@H](O)[C@H](O)[C@H]3O)cc(O)c12	Dopamine beta-hydroxylase (Homo sapiens, UniProt P09172)	enzyme activity, inhibitor	–	–	–	IC50	0.041 µM
CN1CC[C@@H](C(=O)O)NC(=O)/C=C\C(=O)N[C@@H](CC2CCCCC2)C(=O)N[C@@H](Cc2ccc(F)cc2)C(=O)N[C@@H](CCCNC(=O)c2cnccn2)C1=O	SRC SH3-SH2-kinase domain	enzyme activity, inhibitor, Z'-LYTE FRET	–	Src residues 83-533, together with: 50 µM ATP	–	IC50	≤ 0.004 µM
C[n+]1cn([C@@H]2O[C@H](COP(=O)([O-])OP(=O)(O)CP(=O)(O)O)[C@@H](O)[C@H]2O)c2nc(N)nc(O)c21	–	cap-dependent translation, inhibitor	rabbit reticulocyte lysate	60 min, 30 °C, no preincubation	–	IC50	8.09 ± 1.18 µM
Cc1nn(-c2ccc(S(=O)(=O)N[C@@H](CO)CC(C)C)cc2)c2nn3nnnc3nc12	PC-3	PI/Hoechst staining	–	2 µM, 24 h	–	necrotic cells	64.5 ± 6.36%
CC(C)NCc1ccc(C[C@@H]2NC(=O)[C@@H](Cc3c[nH]c4ccccc34)NC(=O)[C@H](Cc3ccc(O)cc3)NC(=O)[C@H](NC(=O)[C@@H](N)Cc3ccc(Cl)cc3)CSSC[C@@H](C(=O)N[C@@H](Cc3ccc4ccccc4c3)C(N)=O)NC(=O)[C@H]([C@@H](C)O)NC2=O)cc1	SSTR5 (Homo sapiens, UniProt P35346)	ligand displacement, radioligand	–	cell membranes	–	IC50	> 1 µM
COC1=CC(=O)c2cc3c(cc2C1=O)CCCC3(C)C	DNA topoisomerase IB (Leishmania donovani, UniProt A0A3Q8IHS4+Q8WQM6)	DNA relaxation activity, inhibitor	–	together with: supercoiled plasmid DNA	–	IC50	91.8 ± 8.2 µM
Cc1ccc2nc(-c3ccc(N)cc3)sc2c1S(=O)(=O)O	Genome polyprotein NS3 helicase domain	ATPase activity, inhibitor, malachite green	–	–	–	IC50	> 100 µM
Cc1cccc(Cn2c(CN3CCN(C(=O)C4CC4)CC3)nc3c2c(=O)n(C)c(=O)n3C)c1	ALDH1B1 (Homo sapiens, UniProt P30837)	–	–	–	–	IC50	> 57 µM
Cc1cn(-c2cc(NC(=O)c3ccc(C)c(Nc4nccc(-c5cccnc5)n4)c3)cc(C(F)(F)F)c2)cn1	Proto-oncogene tyrosine-protein kinase Src, SH2 (SRC, Gallus gallus, UniProt P00523, G530I/P529E/Q528E)	cell-free assay, inhibitor	–	–	–	IC50	> 10 µM
CN1C(=O)/C(=C2\Nc3ccccc3C2=O)c2cccc(Br)c21	Cyclin-dependent kinase 5, with p25 (CDK5, Homo sapiens, UniProt Q00535)	–	–	–	–	IC50	> 10 µM
C#CCn1c(Oc2cccc(C3(C(F)(F)F)N=N3)c2)nc2c1c(=O)n(CCCO)c(=O)n2C	TRPC4/TRPC1 (TRPC1/TRPC4, Homo sapiens, UniProt P48995+Q9UBN4)	calcium influx, inhibitor, Fura-2	HEK T-REx expressing TRPC1/TRPC4	together with: englerin A 100 nM	–	IC50	0.121 µM
N#Cc1c(-c2ccc(Cl)cc2)cc(-c2cccs2)nc1SCC(=O)NCC(=O)O	KAT2A (Homo sapiens, UniProt Q92830)	enzyme activity, inhibitor, radiometric	–	–	–	IC50	9.1 µM
NS(=O)(=O)c1ccc(-n2nc(C(F)(F)F)cc2-c2ccc(F)cc2F)cc1	Cyclooxygenase-2 (Canis lupus familiaris, UniProt Q8SPQ9)	PGE2 formation, inhibitor	dog whole blood	24 h, 37 °C, together with: LPS	–	IC50	2.8 µM
O=Cc1c(O)ccc2ccccc12	HUVEC	RNA sequencing, item: MCM10	–	75 µM, 24 h	relative to: DMSO	log2 fold change	-3.78

Compound	tested on	test	test system	setting	how to read	measurement	result
CN1C(=O)[C@H](Cc2ccc(F)cc2)NC(=O)[C@H](CC2CCCCC2)NC(=O)/C=C/C(=O)N[C@H](C(=O)O)CCCNC(=O)[C@@H]1Cc1ccc([N+](=O)[O-])cc1	SRC SH3-SH2-kinase domain	enzyme activity, inhibitor, Z'-LYTE FRET	–	Src residues 83-533, together with: 50 µM ATP	–	IC50	0.16 ± 0.006 µM
Nc1nc(Cl)nc2c1ncn2Cc1cc(OCC(F)F)cc(OC(F)F)c1	PDE10A (Homo sapiens, UniProt Q9Y233)	enzyme activity, inhibitor	–	–	–	IC50	1.22 µM
O=C(O)c1csc(S(=O)(=O)NCc2ccc3c(c2)OCO3)c1	RAD52 (Homo sapiens, UniProt P43351)	DNA binding, inhibitor, FRET	–	25 °C, together with: Cy3-dT30-Cy5 1 nM	–	IC50	933 ± 46 µM
[64Cu+2].c1cnc(CNCc2ccc(CN3CCCN4CCNCCCN(CC4)CC3)cc2)nc1	CXCR4	–	NOD/SCID mouse, U87 and U87-stb-CXCR4 xenografts, stomach	iv, 120 min, ex vivo	–	tissue uptake	3.26 ± 0.64 %ID/g
N#Cc1ccc(C[C@@H]2NC(=O)[C@H](Cc3ccccc3)NC(=O)[C@H](CC3CCCCC3)NC(=O)/C=C/C(=O)N[C@H](C(N)=O)CCCNC2=O)cc1	SRC SH3-SH2-kinase domain	enzyme activity, inhibitor, Z'-LYTE FRET	–	Src residues 83-533, together with: 50 µM ATP	–	IC50	≤ 0.004 µM
N#C/C(=C\c1ccc(O)c(O)c1)C(=O)c1ccc(O)c(O)c1	Genome polyprotein NS3 helicase domain	helicase activity, molecular beacon helicase	–	together with: DNA substrate	–	IC50	> 100 µM
Nc1nc(-c2ccc(Br)cc2)cs1	Capsid scaffolding protein, protease domain (Human herpesvirus 8 type P, UniProt Q2HRB6)	protease activity, inhibitor	–	together with: fluorogenic peptide substrate	–	IC50	> 500 µM
CC1=CC(C)=[N+]2C1=C(CCCC(=O)NCCCC[C@H](NC(=O)N[C@@H](CCC(=O)O)C(=O)O)C(=O)O)c1c(C)cc(C)n1[B-]2(F)F	FOLH1 (Homo sapiens, UniProt Q04609)	ligand displacement in cells, radioligand	–	–	–	IC50	0.188 µM
C=CCC(=N)NCCC[C@H](N)C(=O)O	Nitric oxide synthase 3 (Rattus norvegicus, UniProt Q62600)	cGMP accumulation	rat aortic rings	25 min preincubation, together with: acetylcholine 10 µM	–	IC50	0.9 ± 0.1 µM
CCC(=O)N1CCN(c2ccc(N(C)C(=O)C(C)(C)c3cc(C(F)(F)F)cc(C(F)(F)F)c3)c(-c3ccccc3C)c2)CC1	TACR1 (Homo sapiens, UniProt P25103)	IP1 accumulation, antagonist, HTRF	–	90 min preincubation, together with: substance P 10 nM	–	IC50	0.145 µM
CC(C)(C)S(=O)(=O)Cc1nc(-c2ccc(C(F)(F)F)cc2)cs1	Trypanothione synthetase	enzyme activity, inhibitor	–	–	–	IC50	> 100 µM
Cc1cc(-c2ccc(NC(=O)[C@H](CCCCNC(=O)CCN3C(=O)CC(SCCC(=O)N[C@H](Cc4ccccc4)C(=O)N[C@H]4CSSC[C@@H](C(=O)N[C@H](C(=O)O)[C@@H](C)O)NC(=O)[C@H]([C@@H](C)O)NC(=O)[C@H](CCCCN)NC(=O)[C@@H](Cc5c[nH]c6ccccc56)NC(=O)[C@H](Cc5ccc(O)cc5)NC4=O)C3=O)NC(=O)CN3CCN(CC(=O)O)CCN(CC(=O)O)CCN(CC(=O)O)CC3)c(C)c2)ccc1N=Nc1ccc2c(S(=O)(=O)O)cc(S(=O)(=O)O)c(N)c2c1O (stereo partly shown) [lutetium-177 labelled]	–	–	metastatic NET patients, lymph node metastases	–	–	residence time	0.26 ± 0.07 h
Cc1ccc([N+](=O)[O-])cc1S(=O)(=O)N(C)/N=C/c1cnc2ccc(Br)cn12	MAPK11 (Homo sapiens, UniProt Q15759)	enzyme activity, inhibitor, ADP detection	–	–	–	IC50	> 10 µM
O=S(=O)(NCc1csc(-c2ccccc2)n1)c1cc(Cl)ccc1Cl	Trypanothione synthetase	enzyme activity, inhibitor	–	–	–	IC50	6.3 µM
C[C@@H](N)C1CCN(S(=O)(=O)c2cccc3cnccc23)CC1	ROCK2 (Homo sapiens, UniProt O75116)	enzyme activity, inhibitor, radiometric	–	–	–	IC50	0.59 µM
COc1ccc2c(c1)C(=C1Nc3ccccc3C1=NOCC(O)CO)C(=O)N2 (stereo not shown)	HCK (Homo sapiens, UniProt P08631)	enzyme activity, inhibitor, radiometric	–	–	–	IC50	0.264 µM
CCC(NC(=O)C(CC(C)C)NC(=O)Nc1ccncc1)C(=O)C(=O)NCc1cc(OC)cc(OC)c1 (stereo not shown)	Calpain-2 catalytic subunit (Capn2, Mus musculus, UniProt O08529)	enzyme activity, inhibitor	mouse pons-cerebellum membranes	together with: calcium 2 mM	–	IC50	0.34 µM
NC(=S)Nc1ccccc1[N+](=O)[O-]	Urea transporter 2 (Rattus norvegicus, UniProt Q62668)	urea transport, inhibitor	MDCK expressing rat UT-A1	20 min	–	IC50	9300 ± 700 µM
C[n+]1cn(C2OC(COP(=O)(O)OP(=O)([O-])C(Cl)(Cl)P(=O)(O)OP(=O)(O)OCC3OC(n4cnc5c(=O)[nH]c(N)nc54)C(O)C3O)C(O)C2O)c2nc(N)nc(O)c21 (stereo not shown)	–	cap-dependent translation, inhibitor	rabbit reticulocyte lysate	60 min, 30 °C, no preincubation	–	IC50	1.34 ± 0.15 µM
COc1cc(OC)cc(C(O)c2c[nH]c3ncc(C(F)(F)F)cc23)c1 (stereo not shown)	FGFR3 (Homo sapiens, UniProt P22607)	enzyme activity, inhibitor	–	–	–	IC50	0.32 µM
